Measurements of several laboratories.
Numbered parts are unrelated; each lists some results of a single study. Positions count from the first letter of the parent shown.
Sequence of UniProt P36897 (whole entry, looked up): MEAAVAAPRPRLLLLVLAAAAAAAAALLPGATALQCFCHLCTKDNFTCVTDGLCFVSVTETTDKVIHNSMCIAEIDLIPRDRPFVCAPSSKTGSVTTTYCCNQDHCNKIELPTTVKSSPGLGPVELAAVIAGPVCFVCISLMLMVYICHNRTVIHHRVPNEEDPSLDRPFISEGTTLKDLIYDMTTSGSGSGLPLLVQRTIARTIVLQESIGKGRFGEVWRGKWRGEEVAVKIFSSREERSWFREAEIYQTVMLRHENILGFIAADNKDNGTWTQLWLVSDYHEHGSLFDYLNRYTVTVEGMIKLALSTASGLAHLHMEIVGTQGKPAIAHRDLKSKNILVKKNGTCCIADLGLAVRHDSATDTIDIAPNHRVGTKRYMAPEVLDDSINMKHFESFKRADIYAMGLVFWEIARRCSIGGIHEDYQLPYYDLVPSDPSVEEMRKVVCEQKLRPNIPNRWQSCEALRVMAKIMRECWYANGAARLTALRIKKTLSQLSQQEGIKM
Sequence of UniProt Q32MK0 (whole entry, looked up): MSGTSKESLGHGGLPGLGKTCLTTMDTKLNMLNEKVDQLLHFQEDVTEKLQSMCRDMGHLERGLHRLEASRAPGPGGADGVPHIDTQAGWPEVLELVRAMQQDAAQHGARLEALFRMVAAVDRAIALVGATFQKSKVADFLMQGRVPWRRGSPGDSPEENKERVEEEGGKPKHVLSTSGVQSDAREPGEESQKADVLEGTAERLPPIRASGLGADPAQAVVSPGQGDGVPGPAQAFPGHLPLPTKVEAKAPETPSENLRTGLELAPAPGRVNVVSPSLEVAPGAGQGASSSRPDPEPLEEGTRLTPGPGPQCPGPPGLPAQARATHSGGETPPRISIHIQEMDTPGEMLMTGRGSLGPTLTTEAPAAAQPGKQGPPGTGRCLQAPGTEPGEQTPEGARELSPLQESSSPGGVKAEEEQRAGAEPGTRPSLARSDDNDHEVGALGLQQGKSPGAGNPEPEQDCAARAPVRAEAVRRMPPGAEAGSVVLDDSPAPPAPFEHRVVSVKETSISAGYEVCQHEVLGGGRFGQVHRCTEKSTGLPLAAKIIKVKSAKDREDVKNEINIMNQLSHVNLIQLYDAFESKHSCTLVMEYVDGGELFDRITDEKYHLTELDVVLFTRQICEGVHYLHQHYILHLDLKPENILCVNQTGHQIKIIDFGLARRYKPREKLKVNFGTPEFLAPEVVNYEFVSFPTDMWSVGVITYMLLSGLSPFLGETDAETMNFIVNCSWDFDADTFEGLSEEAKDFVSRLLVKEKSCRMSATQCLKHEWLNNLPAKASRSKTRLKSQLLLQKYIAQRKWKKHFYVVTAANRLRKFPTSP
Sequence of UniProt Q8IU85 (whole entry, looked up): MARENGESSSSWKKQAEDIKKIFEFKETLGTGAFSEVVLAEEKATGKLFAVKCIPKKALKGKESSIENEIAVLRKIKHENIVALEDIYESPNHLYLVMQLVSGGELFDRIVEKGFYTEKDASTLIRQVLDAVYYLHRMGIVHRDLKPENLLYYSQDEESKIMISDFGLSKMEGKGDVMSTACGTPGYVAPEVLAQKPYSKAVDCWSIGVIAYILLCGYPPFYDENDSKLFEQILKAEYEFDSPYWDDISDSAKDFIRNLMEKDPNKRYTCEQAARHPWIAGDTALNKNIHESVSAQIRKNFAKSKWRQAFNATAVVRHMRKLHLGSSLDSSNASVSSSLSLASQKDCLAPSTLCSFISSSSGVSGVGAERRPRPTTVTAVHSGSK
Sequence of UniProt Q9UEE5 (whole entry, looked up): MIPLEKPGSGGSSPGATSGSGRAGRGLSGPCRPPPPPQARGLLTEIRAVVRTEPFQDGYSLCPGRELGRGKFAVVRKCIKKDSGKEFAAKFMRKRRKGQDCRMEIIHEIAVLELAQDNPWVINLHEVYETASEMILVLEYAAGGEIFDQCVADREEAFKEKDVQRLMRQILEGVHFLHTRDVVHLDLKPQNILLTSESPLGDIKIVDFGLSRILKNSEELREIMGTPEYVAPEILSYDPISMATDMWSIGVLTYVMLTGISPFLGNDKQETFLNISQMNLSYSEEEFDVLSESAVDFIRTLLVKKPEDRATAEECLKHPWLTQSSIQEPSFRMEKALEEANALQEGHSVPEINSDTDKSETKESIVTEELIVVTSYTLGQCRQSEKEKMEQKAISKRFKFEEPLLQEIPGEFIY
Sequence of UniProt Q15569 (whole entry, looked up): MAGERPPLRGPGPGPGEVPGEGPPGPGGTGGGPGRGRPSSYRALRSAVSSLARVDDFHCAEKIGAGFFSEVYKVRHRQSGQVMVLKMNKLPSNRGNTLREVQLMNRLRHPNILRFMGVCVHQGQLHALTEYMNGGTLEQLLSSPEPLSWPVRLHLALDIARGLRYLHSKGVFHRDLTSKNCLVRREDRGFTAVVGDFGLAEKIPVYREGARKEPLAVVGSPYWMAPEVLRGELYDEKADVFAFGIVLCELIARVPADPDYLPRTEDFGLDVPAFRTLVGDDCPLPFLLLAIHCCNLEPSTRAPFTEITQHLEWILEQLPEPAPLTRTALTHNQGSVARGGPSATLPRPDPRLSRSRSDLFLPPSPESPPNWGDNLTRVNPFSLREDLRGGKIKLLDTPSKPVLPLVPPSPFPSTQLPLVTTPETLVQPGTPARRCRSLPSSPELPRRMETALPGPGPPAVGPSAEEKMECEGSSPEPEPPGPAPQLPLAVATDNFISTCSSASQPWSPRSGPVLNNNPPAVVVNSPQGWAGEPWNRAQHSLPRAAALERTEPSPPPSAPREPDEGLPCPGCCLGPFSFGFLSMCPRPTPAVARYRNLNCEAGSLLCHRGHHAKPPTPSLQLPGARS
Sequence of UniProt Q9BQI3 (whole entry, looked up): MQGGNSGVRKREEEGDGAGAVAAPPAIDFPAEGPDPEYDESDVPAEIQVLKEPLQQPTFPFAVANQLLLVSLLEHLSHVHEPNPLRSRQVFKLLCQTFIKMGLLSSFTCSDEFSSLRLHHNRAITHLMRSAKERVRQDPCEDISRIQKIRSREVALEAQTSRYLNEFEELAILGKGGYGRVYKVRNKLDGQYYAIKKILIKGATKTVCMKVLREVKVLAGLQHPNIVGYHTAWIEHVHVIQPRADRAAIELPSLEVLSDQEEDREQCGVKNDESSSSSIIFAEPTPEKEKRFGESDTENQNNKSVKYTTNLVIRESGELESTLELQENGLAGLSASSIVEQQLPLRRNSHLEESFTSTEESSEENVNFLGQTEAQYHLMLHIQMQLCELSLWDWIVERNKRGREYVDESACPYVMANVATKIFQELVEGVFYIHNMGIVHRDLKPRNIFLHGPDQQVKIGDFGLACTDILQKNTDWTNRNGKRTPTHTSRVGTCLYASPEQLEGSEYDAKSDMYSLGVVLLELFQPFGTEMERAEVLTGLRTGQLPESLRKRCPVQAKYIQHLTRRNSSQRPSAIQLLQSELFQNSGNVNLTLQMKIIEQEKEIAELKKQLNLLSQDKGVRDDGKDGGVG
Sequence of UniProt P42685 (whole entry, looked up): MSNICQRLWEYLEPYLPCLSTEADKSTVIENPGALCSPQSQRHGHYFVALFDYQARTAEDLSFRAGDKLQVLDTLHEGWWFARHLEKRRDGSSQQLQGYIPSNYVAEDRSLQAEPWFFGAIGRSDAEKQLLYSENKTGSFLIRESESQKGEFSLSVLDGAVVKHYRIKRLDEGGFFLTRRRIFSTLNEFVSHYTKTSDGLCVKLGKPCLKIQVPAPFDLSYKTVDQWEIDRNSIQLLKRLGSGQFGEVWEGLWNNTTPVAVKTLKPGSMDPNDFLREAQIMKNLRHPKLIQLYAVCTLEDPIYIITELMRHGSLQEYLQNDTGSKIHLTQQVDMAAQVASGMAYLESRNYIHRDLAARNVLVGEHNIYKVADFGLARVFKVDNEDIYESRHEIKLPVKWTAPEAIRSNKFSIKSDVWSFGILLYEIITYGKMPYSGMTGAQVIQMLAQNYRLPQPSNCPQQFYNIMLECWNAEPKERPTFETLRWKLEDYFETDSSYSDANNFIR

Block 1 — target: CCNB2, cyclin fold, Cln2 fusion (human); method: yeast growth competition, sequencing; sample: yeast; notes: weak parent motif; relative to: not given; direction: higher = stronger binding
Parent: MASTL docking peptide (human); PMIAKNLMCELDE; partner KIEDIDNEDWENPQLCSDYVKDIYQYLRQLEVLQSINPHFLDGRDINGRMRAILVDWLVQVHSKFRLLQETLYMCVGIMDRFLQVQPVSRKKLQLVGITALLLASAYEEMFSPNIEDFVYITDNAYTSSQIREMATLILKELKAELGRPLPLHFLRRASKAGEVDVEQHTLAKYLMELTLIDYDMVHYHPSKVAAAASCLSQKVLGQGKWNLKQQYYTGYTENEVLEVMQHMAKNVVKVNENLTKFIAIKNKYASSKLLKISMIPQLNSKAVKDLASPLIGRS
Substitution | normalised enrichment score
L7E | 0.366
A4W | 0.00927
L7W | -0.208
D12F | 0.269
N6W | -0.149
N6L | 0.0856
I3K | 0.2
N6Q | 0.223

Block 2 — organism: Plasmodium berghei; action: inhibitor; cell line: Huh-7; strain: liver stage; concentration: 10 µM; time: 24 h; relative to: untreated control
SMILES | infection rate
N[C@@H](Cc1cc(I)c(Oc2cc(I)c(O)c(I)c2)c(I)c1)C(=O)O | 108%
Cc1ccsc1/C=C/C1=NCCCN1C | 74.6%
CC1=C(/C=C/C(C)=C/C=C/C(C)=C\C(=O)O)C(C)(C)CCC1 | 96.3%

Block 3 — cell line: mouse MPNST tumor cells; method: high-content nuclear imaging; item: cell number; concentration: 10 µM; time: 12 h; notes: mean of 2 replicates; relative to: plate mean; direction: higher = more cells
SMILES | nuclei count [z-score]
N=C(N)NCC1COC2(CCCCC2)O1 (stereo not drawn) | 0.617
O=c1[nH]nc(Sc2ncc([N+](=O)[O-])s2)n1-c1ccc2c(c1)OCCO2 | -3.62
Cc1c(Nc2ncccc2C(=O)O)cccc1C(F)(F)F | 0.184
Nc1cc(-c2ccncc2)c[nH]c1=O | 1.92

Block 4 — read-out: cell-free assay; method: competition with immobilised ligand; concentration: 1 µM
Compound: CC(=O)N1CCC(c2ccc(C(=O)NC(=N)N)cc2C(F)(F)F)CC1
target | remaining binding
SLK (Homo sapiens, UniProt Q9H2G2) | 100%
PIK3CA (Homo sapiens, UniProt P42336, M1043I) | 100%
MYLK3 (Homo sapiens, UniProt Q32MK0) | 100%
CAMK1D (Homo sapiens, UniProt Q8IU85) | 95%
LRRK2 (Homo sapiens, UniProt Q5S007) | 100%
PRKCE (Homo sapiens, UniProt Q02156) | 100%
STK32B (Homo sapiens, UniProt Q9NY57) | 89%
FRK (Homo sapiens, UniProt P42685) | 100%
TLK2 (Homo sapiens, UniProt Q86UE8) | 100%
FLT3 (Homo sapiens, UniProt P36888, F691L/ITD) | 80%
TGFBR1 (Homo sapiens, UniProt P36897) | 100%
CDKL2 (Homo sapiens, UniProt Q92772) | 100%
EIF2AK1 (Homo sapiens, UniProt Q9BQI3) | 100%
TESK1 (Homo sapiens, UniProt Q15569) | 95%
STK17A (Homo sapiens, UniProt Q9UEE5) | 100%

Block 5 — host: human; sample: microsomes or S9; concentration: 2 µM; time: 0.5 h
Structure (SMILES) | remaining compound [%]
O=C(Nc1cccc2c1OCCC2O)c1cc2sccc2[nH]1 (stereo not drawn) | 79.8
O[C@@H]1C[C@@H](c2nnc3n2CCN(Cc2cccc4[nH]ccc24)C3)N(Cc2ccccc2)C1 | 21.1
O=C1CC(N2CCC3(CC2)OCCO3)C(=O)N1c1ccc2c(c1)OCO2 (stereo not drawn) | 41.4
CCN(CC)Cc1ccc2c(c1)CN(C(=O)Nc1ccc(OC)cc1)CCO2 | 35.2

Other studies, line by line
Structure (SMILES) | tested on | test system | setting | quantity | value
Cc1nccn1CC1CCc2c(c3ccccc3n2C)C1=O (stereo not drawn) | HaCaT |  | 100 µM, 18 h | viability | 65%
CC(C)n1cnc(-c2ccc(F)cc2)c1-c1ncc(C(=O)Nc2ccc(N3CCN(C)CC3)cc2)[nH]1 |  | IPF patients | 30 mg once daily, adverse event | Gastritis incidence | 0%

Repeated from above (block 4):
target | remaining binding
FRK (Homo sapiens, UniProt P42685) | 100%
TLK2 (Homo sapiens, UniProt Q86UE8) | 100%
FLT3 (Homo sapiens, UniProt P36888, F691L/ITD) | 80%
TGFBR1 (Homo sapiens, UniProt P36897) | 100%
CDKL2 (Homo sapiens, UniProt Q92772) | 100%
